# Results pooled from the literature.
# Each line is one published result; not all experiments were run side by side.
# USP14: Ubiquitin carboxyl-terminal hydrolase 14 (USP14, Homo sapiens, UniProt P54578)
# Rac GTPase-activating protein 1: Rac GTPase-activating protein 1 (Homo sapiens, UniProt Q9H0H5)
# PRKAA1 with beta1, gamma2: 5'-AMP-activated protein kinase catalytic subunit alpha-1, with beta1, gamma2 (PRKAA1, Homo sapiens, UniProt Q13131)
Structure (SMILES),target,test,test system,conditions,inhibition
Cc1oc2c(c1C(=O)NCN1CCOCC1)C(=O)c1ccccc1C2=O,USP14,"enzyme activity, inhibitor",,17 µM,20%
CCOC(=O)C1(C)C(Br)=C(Cl)C(=O)N1c1ccc(Cl)cc1 (stereo not shown),Rac GTPase-activating protein 1,"enzyme activity, inhibitor, ADP detection",,20 µM,48.5%
COC1=C(N2CCOCC2)C(=O)c2ccccc2C1=O,USP14,"enzyme activity, inhibitor",,17 µM,22%
C[C@H](NC(=O)[C@H](CC(=O)NCC(C)(C)C)NC(=O)CCc1ccccc1)C(=O)NCc1ccccc1Cl,"Neutrophil elastase (ELANE, Homo sapiens, UniProt P08246)","enzyme activity, inhibitor",,100 µM,12%
C/C=C/C(=O)Nc1ccc2nc(NCCCCCN(C)C)nc(NCCCCCCN(C)C)c2c1,"SETD7 (Homo sapiens, UniProt Q8WTS6)","enzyme activity, inhibitor, radiometric",,50 µM,62%
C[Si](C)(C)C[C@H](CN)CC(=O)O,"GABBR1 (Homo sapiens, UniProt Q9UBS5)","ligand displacement, radioligand",,250 µM,-9%
C=CC(=O)N1Cc2nc(-c3cc(-c4cc(Cl)cnc4Cl)c(F)cc3F)n(-c3ccncn3)c2C1,"PRKAA1 with beta1, gamma2",kinome panel,,1 µM,-4.8%
c1ccc(CSc2nnc(-c3ccco3)c(-c3ccco3)n2)cc1,Rac GTPase-activating protein 1,"GAP activity, malachite green phosphate",,"concentration not given, orthogonal retest",54.4%
C[Si]1(C[C@H](CN)CC(=O)O)CCCC1,"P2X receptor, rabbit","binding, radioligand binding",,"70 µM, with: [3H]alpha,beta-methylene-ATP",-9%
"CC(=O)C12NC(C)(C)CC1(C)C(=O)C1=C2c2c(c3c4n2C(C)(C)CC2=C4C4(CC(C)(C)NC(C)(C4)C2=O)CC3(C)C)C(=O)C(C)(C)N1 (single isomer, unassigned; (+))","Neuronal acetylcholine receptor; alpha3/beta4 (Homo sapiens, UniProt P30926+P32297)","ion current, patch clamp",HEK-293T,10 µM,31.4%
Cc1cc(N2CCOCC2)nc2cc(Cl)ccc12,Rac GTPase-activating protein 1,"GAP activity, malachite green phosphate",,"concentration not given, orthogonal retest",35%
CC(=O)ON=C1Sc2ccccc2C1=O,USP14,"enzyme activity, inhibitor",,17 µM,34%
CN1CCN(Cc2ccc(-c3ccc(CO[C@H]4CCC[C@@H]4NC(=O)c4cc(-c5cnn(C)c5)cnc4N)cc3)cc2)CC1,"5'-AMP-activated protein kinase catalytic subunit alpha-1, with beta2, gamma3 (PRKAA1, Homo sapiens, UniProt Q13131)",SelectScreen kinase profiling,,0.1 µM,16%
Nc1n[nH]c2cc(O)nc(O)c12,USP14,"enzyme activity, inhibitor",,17 µM,96%
COc1ccc2c(c1)-c1nc(N)sc1CC2,Rac GTPase-activating protein 1,"enzyme activity, inhibitor, ADP detection",,10 µM,82.3%
CC1=NNC(=O)/C1=N\Nc1ccccc1,USP14,"enzyme activity, inhibitor",,17 µM,26%
O=C1CC(=O)N(c2ccccc2)N1c1ccccc1,Rac GTPase-activating protein 1,"enzyme activity, inhibitor, ADP detection",,20 µM,36.7%
Nc1ccc(N2CCOCC2)c(N)c1,USP14,"enzyme activity, inhibitor",,17 µM,92%
CCOC(=O)C1(C)C(Br)=C(Cl)C(=O)N1c1ccc(F)cc1 (stereo not shown),Rac GTPase-activating protein 1,"enzyme activity, inhibitor, ADP detection",,20 µM,52.9%
CC1=C(C)C(=O)C(NCC2CCCO2)=CC1=O (stereo not shown),USP14,"enzyme activity, inhibitor",,17 µM,85%
Cc1ccc(C)n1-c1ccc(OCC(=O)O)cc1,Rac GTPase-activating protein 1,"enzyme activity, inhibitor, ADP detection",,10 µM,55%
CCn1cc(C(=O)O)c(=O)c2c(N)c(F)c(NC3CCCCC3)cc21,"PRKAA1 with beta1, gamma2",kinase activity,,"0.1 µM, with: ATP at Km",-6.5%

# Excerpt of the above:
Structure (SMILES),target,test,test system,conditions,inhibition
CCOC(=O)C1(C)C(Br)=C(Cl)C(=O)N1c1ccc(Cl)cc1 (stereo not shown),Rac GTPase-activating protein 1,"enzyme activity, inhibitor, ADP detection",,20 µM,48.5%
Nc1n[nH]c2cc(O)nc(O)c12,USP14,"enzyme activity, inhibitor",,17 µM,96%
